Assay results gathered from unrelated publications.
Protocols differ between the studies behind these lines. ± gives the spread as reported.
B1: EFR3A 721-791 (Homo sapiens, UniProt Q14156); chain SNTEEITFEALKKAIDTSGMEEQEKEKRRLVIEKFQKAPFEEIAAQCESKANLLHDRLAQILELTIRPPPS
B2: RPRD1A 134-312 (Homo sapiens, UniProt Q96P16); chain KPRKRTYEQIKVDENENCSSLGSPSEPPQTLDLVRALQDLENAASGDAAVHQRIASLPVEVQEVSLLDKITDKESGERLSKMVEDACMLLADYNGRLAAEIDDRKQLTRMLADFLRCQKEALAEKEHKLEEYKRKLARVSLVRKELRSRIQSLPDLSRLPNVTGSHMHLPFAGDIYSED
B3: designed binder (Homo sapiens); chain MASAARLTMMWEEVTCPICLDPFVEPVSIECGHSFCQECISQVGKGGGSVCPVCRQRFLLKNLRPNRQLANMVNNLKEISQEAREGTQGERCAVHGERLHLFCEKDGKALCWVCAQSRKHRDHAMVPLEEAAQEYQEKLQVALGELRRKQELAEKLEVEIAIKRADWKKTVETQKSRIHAEFVQQKNFLVEEEQRQLQELEKDEREQLRILGEKEAKLAQQSQALQELISELDRRCHSSALELLQEVIIVLERSESWNLKDLDITSPELRSVCHVPGLKKMLRTCAGGGGSGGGGSGGGGSRLDAPSQIEVKDVTDTTALITWGDPYSYIVRFELTYGIKDVPGDRTTISLRYYYHYYSIGNLKPDTEYEVSLISYSTYYDYRYSSNPAKITFKTGL
B4: UBQLN2 450-624 (Homo sapiens, UniProt Q9UHD9); sequence looked up; chain RAMQALMQIQQGLQTLATEAPGLIPSFTPGVGVGVLGTAIGPVGPVTPIGPIGPIVPFTPIGPIGPIGPTGPAAPPGSTGSGGPTGPTVSSAAPSETTSPTSESGPNQQFIQQMVQALAGANAPQLPNPEVRFQQQLEQLNAMGFLNREANLQALIATGGDINAAIERLLGSQPS
B5: ATP synthase subunit gamma, human; sequence looked up; chain ATLKDITRRLKSIKNIQKITKSMKMVAAAKYARAERELKPARIYGLGSLALYEKADIKGPEDKKKHLLIGVSSDRGLCGAIHSSIAKQMKSEVATLTAAGKEVMLVGIGDKIRGILYRTHSDQFLVAFKEVGRKPPTFGDASVIALELLNSGYEFDEGSIIFNKFRSVISYKTEEKPIFSLNTVASADSMSIYDDIDADVLQNYQEYNLANIIYYSLKESTTSEQSARMTAMDNASKNASEMIDKLTLTFNRTRQAVITKELIEIISGAAALD
B6: NHEJ1 1-224 L115A (Homo sapiens, UniProt Q9H9Q4); sequence looked up; chain MEELEQGLLMQPWAWLQLAENSLLAKVFITKQGYALLVSDLQQVWHEQVDTSVVSQRAKELNKRLTAPPAAFLCHLDNLLRPLLKDAAHPSEATFSCDCVADALILRVRSELSGAPFYWNFHCMLASPSLVSQHLIRPLMGMSLALQCQVRELATLLHMKDLEIQDYQESGATLIRDRLKTEPFEENSFLEQFMIEKLPEACSIGDGKPFVMNLQDLYMAVTTQ
B7: prolactin-inducible protein, human; sequence looked up; chain QDNTRKIIIKNFDIPKSVRPNDEVTAVLAVQTELKECMVVKTYLISSIPLQGAFNYKYTACLCDDNPKTFYWDFYTNRTVQIAAVVDVIRELGICPDDAAVIPIKNNRFYTIEILKVE
B8: SMARCD1 SWIFT domain (Homo sapiens); chain IKQKRKLRIFISNTFNPAKSDAEDGEGTVASWELRVEGRLLEDSALSKYDATKQKRKFSSFFKSLVIELDKDLYGPDNHLVEWHRTATTQETDGFQVKRPGDVNVRCTVLLMLDYQPPQFMPPEPIIINHVISVDPNDQKKTACYDIDVEVDDTL
B9: SRS2 1107-1174 (Saccharomyces cerevisiae, UniProt P12954); N-terminal cysteine BODIPY-FL; chain CHNPDDTTVDNRPIISNAKFLADAAMKKTQKFSKKVKNEPASSQMDIFSQLSRAKKKSKLNNGEIIVID
B10: ATG9 1-255 (Saccharomyces cerevisiae, UniProt Q12142); sequence looked up; chain MERDEYQLPNSHGKNTFLSRIFGLQSDEVNPSLNSQEMSNFPLPDIERGSSLLHSTNDSREDVDENDLRVPESDQGTSTEEEDEVDEEQVQAYAPQISDGLDGDHQLNSVTSKENVLETEKSNLERLVEGSTDDSVPKVGQLSSEEEEDNEFINNDGFDDDTPLFQKSKIHEFSSKKSNTIEDGKRPLFFRHILQNNRPQRDTQKLFTSSNAIHHDKDKSANNGPRNINGNQKHGTKYFGSATQPRFTGSPLNNT
B11: spdl-1 C-terminal 362-479 (Caenorhabditis elegans, UniProt Q17695); sequence looked up; chain PVVNKDFEHPLLAAPLKTLNNGRPSFFIKPKNVEPMPQLGHSLSSIAVTPQKPAAKFTTRSSIKDDTSEWAERRMKAQAEKKLATPTPRYNYIKLSEPVPKFKPAVLQMPSTSETKEN
B12: Cid14/Air1 222-684 D298A/D300A (Schizosaccharomyces pombe); chain 1 SQSCPWHRQYKVEREVSRIFHQDILHFIDYITPTPEEHAVRKTLVSRINQAVLQKWPDVSLYVFGSFETKLYLPTSALALVIISPEHHYRGTKKDMFVLAHHLKKLKLASEVQVITTANVPIIKFVDPLTKVHVDISFNQPGGLKTCLVVNGFMKKYPALRPLVIIIKHFLNMRALNEVFLGGLSSYAIVCLVVSFLQLHPRLSTGSMREEDNFGVLLLEFLELYGKQFYYDAVGIAVHNGGFYFSKKKMGWLKPNQPYLLSIQDPVDFQNDVSKSSRGLLRVKATFANGFDLLTSKLYALASRIEREGVNRVKDFPSILSTILSVDEGVRQHREHMLKCYKNNPVPLEPLVEVDALASIDVDKLPLQDVGLQYVEDESDSDETDAAKDDLFKVNESIETNGHENFQKQALTSTGEQSSSNSRANPSKLFNISSDDSEDEVPIIEDTTASDEESRAKKIRKRF; chain 2 MDMTVSNQKAESDDGSDIDDAALLQKINSLPIDQSITNSVSLEKHDFQGSDDHDSSTDLSDSTLEDVEGSEWADVSRGRYFGSDPSESIVCHNCKGNGHISKDCPHVLCTTCGAIDDHISVRCPWTKKCMNCGLLGHIAARCSEPRKRGPRVCRTCHTDTHTSSTCPLIWRYYVEKEHPVRIDVSEVRKFCYNCASDEHFGDDCTLPSRSNYPESTAFCEANCPSGNDASNKEFFETRRKEFQLERREQNRNQKSSKQRPFH
Sequence of UniProt Q71LX4 (whole entry, looked up): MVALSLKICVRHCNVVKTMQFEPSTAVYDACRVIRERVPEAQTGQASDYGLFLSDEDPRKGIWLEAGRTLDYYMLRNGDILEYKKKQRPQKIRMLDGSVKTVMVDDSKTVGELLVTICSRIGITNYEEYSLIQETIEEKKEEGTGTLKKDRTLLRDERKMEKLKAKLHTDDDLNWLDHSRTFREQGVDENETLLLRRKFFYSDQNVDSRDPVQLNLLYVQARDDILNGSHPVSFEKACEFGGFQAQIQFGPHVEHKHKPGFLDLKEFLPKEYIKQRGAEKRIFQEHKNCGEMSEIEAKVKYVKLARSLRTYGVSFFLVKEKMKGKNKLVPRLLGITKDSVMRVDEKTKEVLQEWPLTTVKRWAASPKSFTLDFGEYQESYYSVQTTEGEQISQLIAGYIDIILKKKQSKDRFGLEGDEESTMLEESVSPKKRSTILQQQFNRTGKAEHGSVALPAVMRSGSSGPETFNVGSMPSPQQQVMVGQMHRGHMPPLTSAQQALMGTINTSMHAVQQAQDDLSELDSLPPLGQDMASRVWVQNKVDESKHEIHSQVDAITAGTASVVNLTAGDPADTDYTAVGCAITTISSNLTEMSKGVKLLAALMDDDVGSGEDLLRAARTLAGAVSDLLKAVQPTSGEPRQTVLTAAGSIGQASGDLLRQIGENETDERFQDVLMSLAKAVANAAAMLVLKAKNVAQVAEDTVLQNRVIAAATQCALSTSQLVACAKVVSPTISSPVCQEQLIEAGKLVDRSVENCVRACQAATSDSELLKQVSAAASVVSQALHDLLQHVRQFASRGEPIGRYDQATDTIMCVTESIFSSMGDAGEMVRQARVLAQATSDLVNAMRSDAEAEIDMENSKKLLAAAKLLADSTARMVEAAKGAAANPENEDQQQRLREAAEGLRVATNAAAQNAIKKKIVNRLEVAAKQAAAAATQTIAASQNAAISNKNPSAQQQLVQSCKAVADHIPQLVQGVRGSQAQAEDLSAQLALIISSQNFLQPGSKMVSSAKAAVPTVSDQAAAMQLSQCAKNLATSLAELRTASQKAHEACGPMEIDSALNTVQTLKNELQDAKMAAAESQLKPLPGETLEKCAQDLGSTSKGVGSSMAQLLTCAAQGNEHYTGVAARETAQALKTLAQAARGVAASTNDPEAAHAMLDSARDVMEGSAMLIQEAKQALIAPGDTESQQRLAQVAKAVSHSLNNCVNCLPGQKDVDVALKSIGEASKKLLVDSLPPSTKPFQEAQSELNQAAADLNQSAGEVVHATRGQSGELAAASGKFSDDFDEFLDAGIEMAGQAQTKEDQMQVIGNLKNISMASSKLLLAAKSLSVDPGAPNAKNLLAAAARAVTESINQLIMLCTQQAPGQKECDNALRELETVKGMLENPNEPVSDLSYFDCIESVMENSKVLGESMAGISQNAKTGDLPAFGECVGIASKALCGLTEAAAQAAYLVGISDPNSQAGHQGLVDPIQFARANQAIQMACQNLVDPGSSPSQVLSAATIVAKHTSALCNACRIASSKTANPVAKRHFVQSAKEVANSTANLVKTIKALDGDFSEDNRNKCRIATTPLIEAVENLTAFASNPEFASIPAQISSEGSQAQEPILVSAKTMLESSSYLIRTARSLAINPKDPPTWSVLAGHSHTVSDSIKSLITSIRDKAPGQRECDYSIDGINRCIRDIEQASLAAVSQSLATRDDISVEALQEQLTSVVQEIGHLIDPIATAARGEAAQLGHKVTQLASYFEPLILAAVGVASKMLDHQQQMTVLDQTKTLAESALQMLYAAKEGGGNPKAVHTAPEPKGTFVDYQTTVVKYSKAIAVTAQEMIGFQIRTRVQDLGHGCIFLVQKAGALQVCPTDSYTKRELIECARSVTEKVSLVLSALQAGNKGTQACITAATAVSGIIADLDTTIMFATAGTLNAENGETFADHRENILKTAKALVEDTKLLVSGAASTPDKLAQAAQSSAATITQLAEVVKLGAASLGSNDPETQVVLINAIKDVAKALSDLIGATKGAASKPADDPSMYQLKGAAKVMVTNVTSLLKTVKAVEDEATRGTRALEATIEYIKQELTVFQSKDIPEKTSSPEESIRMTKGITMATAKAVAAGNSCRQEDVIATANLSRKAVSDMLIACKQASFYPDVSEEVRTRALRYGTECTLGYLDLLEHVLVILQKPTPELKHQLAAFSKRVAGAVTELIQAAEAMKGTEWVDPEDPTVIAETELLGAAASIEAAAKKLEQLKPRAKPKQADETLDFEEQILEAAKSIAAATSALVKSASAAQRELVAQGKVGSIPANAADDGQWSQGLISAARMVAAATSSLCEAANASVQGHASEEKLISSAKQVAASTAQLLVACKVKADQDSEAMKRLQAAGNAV
Sequence of UniProt Q06671 (whole entry, looked up): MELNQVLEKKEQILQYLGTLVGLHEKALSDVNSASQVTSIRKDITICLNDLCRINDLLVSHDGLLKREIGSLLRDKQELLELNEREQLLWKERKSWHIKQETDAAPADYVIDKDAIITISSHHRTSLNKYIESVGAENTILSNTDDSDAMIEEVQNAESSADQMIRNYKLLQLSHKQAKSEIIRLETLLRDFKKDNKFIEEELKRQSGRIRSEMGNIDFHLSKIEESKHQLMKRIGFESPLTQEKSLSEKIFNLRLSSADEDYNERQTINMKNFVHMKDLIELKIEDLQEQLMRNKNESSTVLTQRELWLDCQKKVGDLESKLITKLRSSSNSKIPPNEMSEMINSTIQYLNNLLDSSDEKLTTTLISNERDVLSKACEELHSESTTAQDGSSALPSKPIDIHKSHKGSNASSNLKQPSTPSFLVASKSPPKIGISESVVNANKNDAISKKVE
Sequence of UniProt O75530 (whole entry, looked up): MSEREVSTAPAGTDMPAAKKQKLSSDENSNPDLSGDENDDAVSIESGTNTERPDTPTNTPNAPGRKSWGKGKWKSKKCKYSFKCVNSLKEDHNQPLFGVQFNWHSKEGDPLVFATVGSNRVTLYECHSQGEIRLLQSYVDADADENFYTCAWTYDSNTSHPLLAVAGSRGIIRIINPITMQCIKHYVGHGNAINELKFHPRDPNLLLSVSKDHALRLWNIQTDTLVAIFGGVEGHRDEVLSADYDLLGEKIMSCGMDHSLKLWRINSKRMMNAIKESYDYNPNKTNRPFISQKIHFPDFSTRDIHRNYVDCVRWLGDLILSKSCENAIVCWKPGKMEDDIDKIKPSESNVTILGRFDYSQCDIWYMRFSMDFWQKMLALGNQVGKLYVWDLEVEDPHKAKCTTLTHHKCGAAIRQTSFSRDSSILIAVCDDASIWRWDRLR
Sequence of UniProt P02786 (whole entry, looked up): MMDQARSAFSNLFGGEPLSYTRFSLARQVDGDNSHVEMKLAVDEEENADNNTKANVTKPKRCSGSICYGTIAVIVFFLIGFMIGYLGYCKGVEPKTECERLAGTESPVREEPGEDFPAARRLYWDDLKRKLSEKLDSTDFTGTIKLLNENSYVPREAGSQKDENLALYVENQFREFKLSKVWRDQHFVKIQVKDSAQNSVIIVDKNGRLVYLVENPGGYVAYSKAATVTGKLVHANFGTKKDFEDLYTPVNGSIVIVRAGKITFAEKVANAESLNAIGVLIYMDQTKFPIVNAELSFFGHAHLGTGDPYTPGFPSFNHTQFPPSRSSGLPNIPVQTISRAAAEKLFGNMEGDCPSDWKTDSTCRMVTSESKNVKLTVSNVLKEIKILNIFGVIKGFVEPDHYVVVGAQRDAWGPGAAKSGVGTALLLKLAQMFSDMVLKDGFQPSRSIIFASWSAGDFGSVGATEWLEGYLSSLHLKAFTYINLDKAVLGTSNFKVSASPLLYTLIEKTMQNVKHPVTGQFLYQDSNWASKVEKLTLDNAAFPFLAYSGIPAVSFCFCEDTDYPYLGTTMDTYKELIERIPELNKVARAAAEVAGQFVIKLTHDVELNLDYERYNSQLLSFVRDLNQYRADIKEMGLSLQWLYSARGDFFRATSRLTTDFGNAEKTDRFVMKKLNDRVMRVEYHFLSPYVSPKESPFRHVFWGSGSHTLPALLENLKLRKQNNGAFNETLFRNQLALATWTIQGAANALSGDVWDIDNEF
Sequence of UniProt Q13426 (whole entry, looked up): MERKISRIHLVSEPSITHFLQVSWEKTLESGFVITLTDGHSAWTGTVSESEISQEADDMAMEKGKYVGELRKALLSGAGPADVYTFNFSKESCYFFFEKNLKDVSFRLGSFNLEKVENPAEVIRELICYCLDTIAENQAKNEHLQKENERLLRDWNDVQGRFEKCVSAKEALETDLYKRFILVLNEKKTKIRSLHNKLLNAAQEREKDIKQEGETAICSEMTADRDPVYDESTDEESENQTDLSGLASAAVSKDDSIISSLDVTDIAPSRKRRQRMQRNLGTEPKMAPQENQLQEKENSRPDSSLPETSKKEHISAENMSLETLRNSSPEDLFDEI
Sequence of UniProt P12314 (whole entry, looked up): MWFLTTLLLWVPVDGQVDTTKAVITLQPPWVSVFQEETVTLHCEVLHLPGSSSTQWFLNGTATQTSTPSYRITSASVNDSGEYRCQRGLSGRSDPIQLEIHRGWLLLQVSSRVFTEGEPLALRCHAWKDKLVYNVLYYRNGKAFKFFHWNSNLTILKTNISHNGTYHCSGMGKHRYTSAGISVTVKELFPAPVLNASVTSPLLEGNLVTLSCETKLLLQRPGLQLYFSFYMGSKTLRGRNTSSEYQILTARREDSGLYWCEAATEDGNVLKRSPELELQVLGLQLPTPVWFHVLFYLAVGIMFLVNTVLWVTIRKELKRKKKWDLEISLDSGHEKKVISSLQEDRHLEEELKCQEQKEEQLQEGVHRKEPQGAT
Sequence of UniProt Q5BJF2 (whole entry, looked up): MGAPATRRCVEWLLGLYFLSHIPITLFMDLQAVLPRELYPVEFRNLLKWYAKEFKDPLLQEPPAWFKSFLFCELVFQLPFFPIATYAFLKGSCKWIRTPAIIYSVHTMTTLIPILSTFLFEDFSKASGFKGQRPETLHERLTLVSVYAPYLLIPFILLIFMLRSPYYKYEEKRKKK

Substance = ARTKQTARKS (histone H3 1-10; K4me3); target or system = ING1 163-234 M191A (Arabidopsis thaliana, UniProt Q9LIQ6); test = ITC; test system = peptide; endpoint = Kd; value = 29.7 ± 0.8 µM
Substance = UUUCAAGAG (ssRNA); target or system = U2AF2 148-342 (Homo sapiens, UniProt P26368); test = sequencing of bound RNA; test system = RNA; setting = motif only; endpoint = Kd; value = 0.61 µM
Substance = B1 (EFR3A 721-791); target or system = TTC7A/FAM126B 1-308; test = BLI; endpoint = Kd; value = 0.000473 µM
Substance = Trastuzumab IgG1 (Homo sapiens); target or system = FCGR1A (Homo sapiens, UniProt P12314); test = SPR; endpoint = Kd; value = 0.0023 µM
Substance = B2 (RPRD1A 134-312); target or system = RPAP2 (Homo sapiens, UniProt Q8IXW5); test = ITC; setting = 25 °C; endpoint = Kd; value = > 1000 µM
Substance = B3 (designed binder); target or system = EED (Homo sapiens, UniProt O75530); test = BLI; test system = designed binder; endpoint = Kd; value = > 3.8 µM
Substance = B4 (UBQLN2 450-624); target or system = ubiquitin M1-linked tetramer (UniProt P0CG48); test = NMR titration; endpoint = Kd; value = 12.8 µM
Substance = NOTCH1 fragment (Homo sapiens); target or system = RBPJ 25-449 (Homo sapiens, UniProt Q06330); test = ITC; endpoint = Kd; value = > 20 µM
Substance = B5; target or system = PP6C (human); test = co-immunoprecipitation, IP-MS; test system = CYB5R4 knockout cells; setting = concentration not given; scale = reference: CYB5R4 knockout over parental; endpoint = log2 fold change; value = -0.12
Substance = B6 (NHEJ1 1-224 L115A); target or system = XRCC4 (Homo sapiens, UniProt Q13426); test = BLI; endpoint = Kd; value = 0.16 µM
Substance = ASCC3 C-degron; target or system = APPBP2/ELOB/ELOC (Homo sapiens); test = ITC; endpoint = Kd; value = 1.7 ± 0.5 µM
Substance = B7; target or system = CYB5R4 knockout human cells; test = PP6 interaction, 3xFLAG-PP6C IP-MS; setting = concentration not given; scale = reference: CYB5R4 KO over parental; endpoint = log2 fold change; value = 0.68
Substance = B8 (SMARCD1 SWIFT domain); target or system = SPI1, NHS Red dye labeled (Homo sapiens, UniProt P17947); test = MST; endpoint = Kd; value = 6.78 ± 2.95 µM
Substance = B9 (SRS2 1107-1174); target or system = POL30 1-258 K164R (Saccharomyces cerevisiae, UniProt P15873); test = fluorescence polarisation; setting = apparent; endpoint = Kd; value = 0.138 µM
Substance = VWF fragment (Homo sapiens); target or system = APOB/LDL apoB100 (Homo sapiens); test = ELISA; endpoint = Kd; value = 0.0021 µM
Substance = B10 (ATG9 1-255); target or system = Atg23 full-length, dimer (yeast, UniProt Q06671); test = BLI; endpoint = Kd; value = 1.5 µM
Substance = KLLMIIHDRREFAKFEKEKMNAKWDTQENPIYKSAVTTVVNPKYEGK (ITGB1 752-798 G778Q (Homo sapiens, UniProt P05556-1); sequence looked up); target or system = Tln2 312-408 (Mus musculus, UniProt Q71LX4); test = NMR titration; endpoint = Kd; value = 236 µM
Substance = GCVRLHESCLGQQVPCCDPAATCYCEGRGDRDMKCYCR (designed binder); target or system = ITGA2B/ITGB3 K562 cells; test = flow cytometry; test system = designed binder, U87MG; endpoint = Kd; value = > 0.1 µM
Substance = B11 (spdl-1 C-terminal 362-479); target or system = zwl-1 (Caenorhabditis elegans, UniProt Q95XP9); test = SPR; endpoint = Kd; value = 116 ± 5.4 µM
Substance = Notch ankyrin domain H116A/R107A (Drosophila); target or system = dx (Drosophila melanogaster, UniProt Q23985); test = AUC; endpoint = Kd; value = 14 µM
Substance = IgA1, galactose-deficient (Homo sapiens); target or system = TFRC 101-760 (Homo sapiens, UniProt P02786); test = SPR; endpoint = Kd; value = 1.09 µM
Substance = HEKHH (HTN1 residues 15-19); target or system = TMEM97 (Homo sapiens, UniProt Q5BJF2); test = SPR; test system = peptide; endpoint = Kd; value = 42 µM
Substance = B12 (Cid14/Air1 222-684 D298A/D300A); target or system = mtr4 (Schizosaccharomyces pombe, UniProt O14232); test = SPR; endpoint = Kd; value = 0.179 ± 0.059 µM
Substance = WASHC2A (Homo sapiens, UniProt Q641Q2); target or system = SNX27 fragment (Homo sapiens); test = ITC; endpoint = Kd; value = 4.97 ± 1.32 µM
Substance = BIN2 (Arabidopsis thaliana, UniProt Q39011); target or system = PCK1 (Arabidopsis thaliana, UniProt Q9T074); test = BLI; setting = without ATP, Kd from koff/kon; endpoint = Kd; value = 0.18 µM
Substance = APMKWL (designed peptide; FITC label); target or system = NHERF2 142-254 (Homo sapiens, UniProt Q15599-1); test = fluorescence intensity change, fluorescence titration; test system = peptide; endpoint = Kd; value = 102 µM

Some of these lines once more:
Substance = B10 (ATG9 1-255); target or system = Atg23 full-length, dimer (yeast, UniProt Q06671); test = BLI; endpoint = Kd; value = 1.5 µM
Substance = B4 (UBQLN2 450-624); target or system = ubiquitin M1-linked tetramer (UniProt P0CG48); test = NMR titration; endpoint = Kd; value = 12.8 µM
Substance = B7; target or system = CYB5R4 knockout human cells; test = PP6 interaction, 3xFLAG-PP6C IP-MS; setting = concentration not given; scale = reference: CYB5R4 KO over parental; endpoint = log2 fold change; value = 0.68
Substance = UUUCAAGAG (ssRNA); target or system = U2AF2 148-342 (Homo sapiens, UniProt P26368); test = sequencing of bound RNA; test system = RNA; setting = motif only; endpoint = Kd; value = 0.61 µM
